Results of several laboratories.
A part holds a random share of what one study measured.

Block 1
Target: Interferon regulatory factor 7, full length, phosphomimetic (IRF7, Homo sapiens, UniProt Q92985, residues 1-503, S471D/S472D/S475D/S476D/S477D/S483D/S484D/S487D)
Technique: protein-binding microarray
Form: double-stranded DNA, one strand shown
Sample: in vitro
Tested at: 2200 nM top
Setting: 60-bp whole probe
Added: salmon DNA 0.4 mg/ml
Baseline: random background probes
Reading: higher = stronger binding
Construct (chain): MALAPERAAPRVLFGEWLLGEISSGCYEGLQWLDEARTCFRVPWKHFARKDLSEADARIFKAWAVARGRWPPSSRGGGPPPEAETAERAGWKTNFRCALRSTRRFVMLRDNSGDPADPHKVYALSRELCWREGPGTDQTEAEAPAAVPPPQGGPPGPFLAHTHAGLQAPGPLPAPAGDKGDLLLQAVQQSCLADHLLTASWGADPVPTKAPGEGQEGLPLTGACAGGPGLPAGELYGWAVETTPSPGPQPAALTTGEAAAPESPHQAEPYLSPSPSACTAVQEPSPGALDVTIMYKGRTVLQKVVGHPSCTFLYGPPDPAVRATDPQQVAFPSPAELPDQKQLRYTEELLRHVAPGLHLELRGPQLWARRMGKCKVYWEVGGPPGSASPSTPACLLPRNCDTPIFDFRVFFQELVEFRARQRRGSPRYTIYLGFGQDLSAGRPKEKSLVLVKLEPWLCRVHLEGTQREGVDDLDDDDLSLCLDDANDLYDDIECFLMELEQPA
Sequence | fitted relative affinity
GCCTAGCACGACGGACTGCCTATCCTGACGTGCTAGGTCTTGATTCGCTTGACGCTGCTG | 0.164 z-score
GCCTAGCACGACGGTATCGGTTTCGGGCCGTGCTAGGTCTTGATTCGCTTGACGCTGCTG | 2.98 z-score
GCCTAGCACGACGTTCTCAGTATCGAGACGTGCTAGGTCTTGATTCGCTTGACGCTGCTG | 0.665 z-score

Block 2
Target: Prothrombin, mature alpha-thrombin (F2, Homo sapiens, UniProt P00734)
Technique: aptamer microarray, sandwich
Form: DNA with 2'F-ANA
Sample: in vitro
Tested at: 200 nM
Setting: whole 15-mer aptamer, many near background
Added: Cy3 exosite-II aptamer, 400 nM
Reading: higher = stronger binding
Sequence | mean fluorescence intensity
GGTTGGTGTGGTTGG (2'F-ANA at 7 9 10 11 12 13) | 182 a.u.
GGTTGGTGTGGTTGG (2'F-ANA at 2 4 6 7 8 9 10 12) | 129 a.u.
GGTTGGTGTGGTTGG (2'F-ANA at 1 5 7 8 9 11) | 53.2 a.u.
GGTTGGTGTGGTTGG (2'F-ANA at 3 7 10 13 14 15) | 432 a.u.

Block 3
Target: Histone acetyltransferase KAT6A, winged helix 2, GST fusion (KAT6A, Homo sapiens, UniProt Q92794, residues 85-181)
Technique: protein binding microarray
Form: double-stranded DNA, one strand shown
Sample: in vitro
Tested at: not given
Setting: 8-mer, flanks averaged, mean of 2 arrays, mostly near background
Baseline: not given
Reading: higher = stronger binding
Residues (chain): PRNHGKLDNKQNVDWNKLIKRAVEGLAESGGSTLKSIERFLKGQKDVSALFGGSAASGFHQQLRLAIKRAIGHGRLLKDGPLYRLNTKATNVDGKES
Sequence | E-score
ATGTGAAT | 0.0129
TGCATAAA | 0.239
ATACAGAT | -0.0497

Other studies, line by line
Substance | target | assay | test system | setting | scale | endpoint | value
PhoQ, residues 284 288 289 292 302 303 TLSLKA | PhoP, residues 12 14 15 18 19 AGCRL (Escherichia coli, UniProt P23836) | Sort-seq, measured: YFP reporter | E. coli | PhoQ-PhoP variant library, added: 10 µM Mg2+ | baseline: high Mg2+ state, higher = stronger signaling | fold induction | 0.979

Excerpt of the above (block 3):
Sequence | E-score
ATGTGAAT | 0.0129
